# Results gathered from unrelated publications.
# A part holds a random share of what one study measured. Positions count from the first letter of the parent shown.

# Block 1 — target: UBE2N UBC core domain (UniProt P61088); technique: yeast two-hybrid; matrix: yeast; setting: mostly zero background; relative to: not given; reading: higher = stronger interaction
# B1: MEX3B RING domain (UniProt Q6ZN04); chain SGLRRKGSRDCSVCFESEVIAALVPCGHNLFCMECANRICEKSEPECPVCHTAVTQAIRIF
# B2: RNF166 RING domain (UniProt Q96A37); chain GDSGLEAQYTCPICLEVYHRPVAIGSCGHTFCGECLQPCLQVPSPLCPLCRLPFDPKKVDK
# B3: MKRN2 RING domain (UniProt Q9H000); chain FAFQASQDKVCSICMEVILEKASASERRFGILSNCNHTYCLSCIRQWRCAKQFENPIIKSCPECRVISEFVIPSV
# B4: MYCBP2 RING domain (UniProt O75592); chain TSLKQDADDMCMICFTEALSAAPAIQLDCSHIFHLQCCRRVLENRWLGPRITFGFISCPICKNKINHIVLKD
# B5: RNF183 RING domain (UniProt Q96D59); chain EQQGRELEAECPVCWNPFNNTFHTPKMLDCCHSFCVECLAHLSLVTPARRRLLCPLCRQPTVLASGQP
# Residues (chain): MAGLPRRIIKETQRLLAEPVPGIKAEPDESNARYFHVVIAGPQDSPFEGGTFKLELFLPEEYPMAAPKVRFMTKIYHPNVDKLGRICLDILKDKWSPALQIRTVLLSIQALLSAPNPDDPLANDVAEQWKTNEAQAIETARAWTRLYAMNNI
Molecule,lacZ reporter activity
RYRQMEERITCPICIDSHIRLVFQCGHGACAPCGSALSACPICRQPIRDRIQIF (MIB2 RING domain (UniProt Q96AX9)),0
B1 (MEX3B RING domain),0
PEELAVNNDDCAICWDSMQAARKLPCGHLFHNSCLRSWLEQDTSCPTCRMSLNIADNNR (AMFR RING domain (UniProt Q9UKV5)),5040
QVQSRTKIEECVVCSDKKAAVLFQPCGHMCACENCANLMKKCVQCRAVVERRVPFI (MIB1 RING domain (UniProt Q86YT6)),0
B2 (RNF166 RING domain),0
B3 (MKRN2 RING domain),0
B4 (MYCBP2 RING domain),0
B5 (RNF183 RING domain),0

# Block 2 — technique: protein-binding microarray; form: double-stranded DNA, one strand shown; matrix: in vitro; tested at: not given; reading: higher = stronger binding
# Target: Protein C-ets-1 (ETS1, Homo sapiens, UniProt P14921, residues 1-441, Y397A, full length assumed)
# Setting: k-mer, scored over probes, only values ≥0.25
# Construct (chain): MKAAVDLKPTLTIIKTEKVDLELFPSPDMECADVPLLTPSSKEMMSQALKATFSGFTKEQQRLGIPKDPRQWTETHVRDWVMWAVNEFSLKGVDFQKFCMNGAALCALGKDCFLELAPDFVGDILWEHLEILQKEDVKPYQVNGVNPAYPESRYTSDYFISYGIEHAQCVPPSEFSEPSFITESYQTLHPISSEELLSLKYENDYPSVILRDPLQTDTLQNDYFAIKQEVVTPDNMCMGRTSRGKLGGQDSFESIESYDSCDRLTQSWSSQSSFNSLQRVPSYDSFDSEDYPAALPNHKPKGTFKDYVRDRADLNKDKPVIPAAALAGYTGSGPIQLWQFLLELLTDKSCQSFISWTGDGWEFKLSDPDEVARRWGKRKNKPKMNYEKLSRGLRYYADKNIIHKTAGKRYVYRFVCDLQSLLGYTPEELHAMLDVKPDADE
Strand,E-score
TCCGGAAA,0.348
CGACAAAA,0.457
CATGTGCC,0.263
CGCCCCGC,0.261
ATTTCCGA,0.324
CTGTCACA,0.284
CGCGGAAG,0.335
CCGGATAC,0.315
GTTACAAC,0.297
TCCGGCAA,0.333
CGATTTGC,0.25
AAATGGTA,0.293
CCTTGTCA,0.272
CGGATATA,0.35
AGTGTACA,0.312
CCGCACCC,0.253
ACATTGCA,0.253
CAAATATC,0.285
TGACGGCA,0.263
CGGCGCGC,0.263
CGCGCGGA,0.296
ACTGTCAA,0.256
GTGCCGGA,0.29
TTTGCAAA,0.347

# Block 3 — technique: RNA Bind-n-Seq; form: RNA; matrix: in vitro; tested at: 15 pmol; setting: 4-mer, random 30-nt RNA, single round; added: 3 µM DMDA-PatA, 2 mM AMP-PNP; relative to: input library; reading: higher = stronger binding
# Target: Eukaryotic initiation factor 4A-I (EIF4A1, Homo sapiens, UniProt P60842, residues 1-406, full length assumed)
# Sequence of UniProt P60842 (whole entry, looked up): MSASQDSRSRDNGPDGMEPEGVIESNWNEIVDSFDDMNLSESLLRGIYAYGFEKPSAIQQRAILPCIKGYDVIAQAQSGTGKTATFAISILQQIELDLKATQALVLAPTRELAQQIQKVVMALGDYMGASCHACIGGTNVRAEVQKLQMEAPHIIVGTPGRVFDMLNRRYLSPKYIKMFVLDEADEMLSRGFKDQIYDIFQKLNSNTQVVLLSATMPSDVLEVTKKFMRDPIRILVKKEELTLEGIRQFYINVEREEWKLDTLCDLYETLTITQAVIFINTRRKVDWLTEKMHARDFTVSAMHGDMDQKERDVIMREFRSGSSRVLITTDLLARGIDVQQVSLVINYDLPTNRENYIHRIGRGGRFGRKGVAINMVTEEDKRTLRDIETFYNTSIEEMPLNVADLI
Strand,4-mer enrichment [fold]
AGGA,0.901
GCGU,1.14
GAGU,1.35
UACC,0.517
CAGA,0.631
AGGC,0.935
AAUG,1.17
GACU,0.87
CUCC,0.448
CGUC,0.57
UGUG,1.9

# Block 4 — technique: RNAcompete; form: RNA; matrix: in vitro; tested at: 20 nM; setting: 7-mer, probes averaged, single round; relative to: mean of 7-mers; reading: higher = stronger binding
# Target: PABPC1L2, full length, GST fusion (mouse, UniProt A0ABA7IW68)
# Construct (chain): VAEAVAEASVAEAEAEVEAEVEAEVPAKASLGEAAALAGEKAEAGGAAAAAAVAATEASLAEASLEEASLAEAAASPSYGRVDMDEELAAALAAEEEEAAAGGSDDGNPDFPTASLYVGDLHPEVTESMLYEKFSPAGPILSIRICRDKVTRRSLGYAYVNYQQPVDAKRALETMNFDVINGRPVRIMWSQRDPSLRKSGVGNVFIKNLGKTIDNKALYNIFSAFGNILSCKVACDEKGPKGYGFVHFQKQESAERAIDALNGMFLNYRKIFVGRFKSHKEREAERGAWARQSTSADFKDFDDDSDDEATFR
Strand,7-mer Z-score
ACGUUGG,-0.0319
UAGGCGU,-0.17
CACUACG,-0.215
AAUGUCC,0.00254
GCGACGU,-0.104
UAUGUCU,-0.18
CCAGUAU,-0.219
CGGUGGU,-0.103
CCAAUCG,-0.262
UGCCCUA,-0.295
CGCUCCA,-0.208
ACCCAGA,-0.0246
GUGCGUU,-0.273
UAUGUGC,-0.0319
CACAUUA,0.0116
UGGUCCC,-0.182

# Block 5 — technique: RNA Bind-n-Seq; form: RNA; matrix: in vitro; tested at: 365 nM; relative to: no-protein control; reading: higher = stronger binding
# Target: RNA binding protein fox-1 homolog 2, RRM domain, GST-SBP tag (RBFOX2, Homo sapiens, UniProt O43251-10, residues 100-194)
# Setting: natural RNA segment, single round, ends assumed
# Construct (chain): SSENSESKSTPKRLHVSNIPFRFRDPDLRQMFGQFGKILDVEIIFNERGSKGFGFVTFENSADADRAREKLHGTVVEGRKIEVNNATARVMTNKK
Strand,RBNS enrichment (R)
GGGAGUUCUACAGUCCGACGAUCGUGAGGGCUCCGGGUGGUGCUAUGACGUGGAACUGGAUAUUGAGUAAUAAAUUUGCUGUGGUUUGUACCCGGUGUUGUCUGUUGCCUGGAAGUUGGGAAGCUGAGUUACUUGGAAUUCUCGGGUGCCAA,1.2
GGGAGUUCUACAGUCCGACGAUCUCUUUUUUUAAUAAUUUCAUCCCUAUUUAUAGUUUUUAUAUUAAUUUGUUUUUCUUAUCCAAGUAAAGAUGUCAAUAGGAAUUGCAUUAGUCCAAGGCCUUUUUCAUAAAUGGAAUUCUCGGGUGCCAA,1.23
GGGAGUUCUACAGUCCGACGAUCCAGUAGCAAAAUUAAUUGUGAAGUAGCAAUGAAAAUAACCUUCUGGUUGGGGGCCACCAUGAGGAACUGUACUAAAGGGUGGCAGCAUGAGGAAGGUUGGGUACCGCUGGUGGAAUUCUCGGGUGCCAA,1.44
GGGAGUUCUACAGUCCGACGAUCAGUGAAAGUUGACAUUGUGUUUCAGAACUCUUGGUGUCCCUCUCAUUCCUAUCCUUCCUGGUACUGCAGUCAACCAAAGAUGGCAUGACUUACCUGCGCAGAUCUGGAAGUGGAAUUCUCGGGUGCCAA,1.04
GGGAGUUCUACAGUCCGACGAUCAUCUGUACAGAUCUAACACUACGACACUCAGUAUUCAUUUUAUUGAAGCAUGCAAGUAAAGCACUUUUUCUAAUUUAUAUAGAGGUAUCUAAUUAACACAGCACAUUGUAUGGAAUUCUCGGGUGCCAA,5.08
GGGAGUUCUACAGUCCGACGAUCCUUGGCCACUCUGGCCCUGAGCCUGGCUGAAUAGCAGGGCCCGUGUGUGUAGGCUCCCUUCUCACCCCAGGCACCUAGGAGCCCUCUUGCCAGUUCCUCUCUCGCUCUGUUGGAAUUCUCGGGUGCCAA,0.477
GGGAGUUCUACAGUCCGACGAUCUGGGCAGCUUCUGCCUAGGGCAGAGCCCACAAACCAGUGCGUCUGUGCAGAACGUCUGGAUGGACACCCAUCAUGCAUCAGUGCAAUAGAGUCUAGUAAGUGUCUCUAGCUGGAAUUCUCGGGUGCCAA,0.509
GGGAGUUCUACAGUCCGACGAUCGGUCCUUCAAAUGUUCCUUUGGCCAAAAGCUGAAGGGAGUUACUGAGAAAAUAGUUAACAAUUACUGUCAGGUGUCAUCACUGUUCAAAAGGUAAGCACAUUUAGAAUUUUGGAAUUCUCGGGUGCCAA,0.305
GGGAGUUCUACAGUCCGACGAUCAGACGCGGUGUGUGGUCUGCUUCAGUGACUUCGAGGCGCGGCAGCUGCUCCGAGUCCUCCCCUGCAACCAUGAGUUCCACACCAAGUGUGUUGACAAGUGGUUGAAGGCCUGGAAUUCUCGGGUGCCAA,0.36
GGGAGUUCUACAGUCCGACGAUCCCUUCUUCUGGUGCUACAGCUCCAAGGGCCCUUCACCUUCAUGUCUGAAAUGGAACUUUGGCUUUUUCAGUGGAAGAAUAUGUUGAAGGUUUCAUUUUGUUCUAGAAAAAUGGAAUUCUCGGGUGCCAA,0.391
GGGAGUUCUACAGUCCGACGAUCACUAACCCAGGACUCAGUCCUGCUUCUUUUGCCUCGAGUGAUUUUCCUCUGUUUUUCACUAAAUAAGCAAAUGAAAACUCUCUCCAUUACCUUCUGCUUUCUCUUUGUCCUGGAAUUCUCGGGUGCCAA,0.726
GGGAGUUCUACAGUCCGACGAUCACAGUCCUAGAAGGUAUGUUUUAAGAAUACUGUGUAGUACACAUUAUUGCAACAUACACCUGAGAUUUAACAAGGCCCCAAAUGACAGGAAUGUCAUAACCAUUCACACUUGGAAUUCUCGGGUGCCAA,0.219

# Block 6 — technique: DHFR PCA, deep sequencing; matrix: yeast; added: (+)-ABA 0.11 µM; relative to: wild-type fitted maximum; reading: higher = stronger binding
# Target: ABI1, truncated, D143A, DHFR fusion (Arabidopsis thaliana)
# Setting: methotrexate growth selection, single substitutions
# Parent: PYL1, truncated, DHFR fusion (Arabidopsis thaliana); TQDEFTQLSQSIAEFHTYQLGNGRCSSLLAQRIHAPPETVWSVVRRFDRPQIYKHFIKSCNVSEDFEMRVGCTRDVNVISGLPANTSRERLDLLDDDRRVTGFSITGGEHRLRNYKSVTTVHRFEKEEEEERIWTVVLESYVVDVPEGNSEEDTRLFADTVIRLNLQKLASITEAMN; partner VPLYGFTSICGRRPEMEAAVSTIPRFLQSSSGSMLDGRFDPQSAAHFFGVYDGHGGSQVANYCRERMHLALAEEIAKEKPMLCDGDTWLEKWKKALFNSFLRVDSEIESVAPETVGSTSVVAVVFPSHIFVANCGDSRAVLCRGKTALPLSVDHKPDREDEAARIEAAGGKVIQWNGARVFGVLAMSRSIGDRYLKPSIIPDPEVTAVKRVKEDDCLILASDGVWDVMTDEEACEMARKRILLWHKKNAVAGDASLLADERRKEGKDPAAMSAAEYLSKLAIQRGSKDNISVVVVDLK
Change,relative binding score
N177M,7.67%
A170D,3.62%
L156A,18.6%
Q19R,33.6%
D3T,26%
V161S,5.6%
L82R,4.99%
Y141T,-2.37%
S59E,31.9%
H110C,39.6%
T73D,-1.36%
T154W,5.36%
H16V,-3%
S11W,20.5%
S140G,2.66%
F103D,-9.98%
T135R,5.53%
Q2K,31.9%
G21M,23.7%
G21D,32.6%
I162T,5.14%
S27F,-1.94%
S104P,-4.96%
T135C,13.6%
T160A,7.02%

# Block 7 — target: CCND3, cyclin fold, Cln2 fusion (human); technique: yeast growth competition, sequencing; matrix: yeast; setting: weak parent motif; relative to: not given; reading: higher = stronger binding
# Parent: WEE1 docking peptide (human); HKTFRKLRLFDTP
Change,normalised enrichment score
L9A,0.23
D11C,0.14
R8I,0.203
K6S,0.137
F10W,0.112
F10V,0.0498
L7I,0.212
K6W,0.141
H1F,0.107
F10N,0.0277
H1M,0.173
R8K,0.123
K2P,0.0876
T12R,0.0728
T12P,0.0507
K2S,0.0343
L7P,0.143
L9M,0.102
F4L,0.0186
L9N,0.163
F4H,0.187
R5P,0.0359
L9P,0.0818
K2T,0.119
K6H,0.0472

# A few entries again (block 2):
Strand,E-score
CCTTGTCA,0.272
ACATTGCA,0.253
CGCCCCGC,0.261
CGGCGCGC,0.263
GTTACAAC,0.297
CGCGCGGA,0.296
TTTGCAAA,0.347
CGGATATA,0.35
GTGCCGGA,0.29
TCCGGAAA,0.348
CCGGATAC,0.315
TCCGGCAA,0.333
AGTGTACA,0.312
TGACGGCA,0.263
CTGTCACA,0.284
ATTTCCGA,0.324
CCGCACCC,0.253
CGCGGAAG,0.335
